{"data": "Published values pooled from the literature", "organism": "HIV-1", "note": "Compare with care: the assays were run in different laboratories. ± marks the error that the study gave."}
{"Structure (SMILES)": "CC(=O)N[C@@H](CC(C)C)C(=O)N[C@@H](CS)C(=O)N[C@@H](CC(=O)O)C(=O)N[C@@H](CS)C(=O)N1CCC[C@H]1C(=O)N[C@@H](CC(N)=O)C(=O)NCC(=O)N1CCC[C@H]1C(=O)N[C@@H](Cc1c[nH]c2ccccc12)C(=O)N[C@H](C(=O)N[C@@H](Cc1c[nH]c2ccccc12)C(=O)N[C@H](C(=O)N1CCC[C@H]1C(=O)N[C@@H](C)C(=O)N[C@@H](Cc1ccccc1)C(=O)N[C@@H](CO)C(=O)N[C@@H](CCC(N)=O)C(=O)N[C@@H](C)C(=O)N[C@H](C(=O)NCC(=O)O)C(C)C)C(C)C)C(C)C", "assay": "viral replication, inhibitor, SEAP reporter", "system": "CEMx174 SEAP reporter, NL4-3", "conditions": "3 days", "IC50": "> 60 µM"}
{"Structure (SMILES)": "CC[C@H](C)[C@H](N)C(=O)N[C@@H](CO)C(=O)N[C@@H](Cc1ccccc1)C(=O)N[C@@H]1CSCc2ccc(cc2)-c2ccc(cc2)CSC[C@@H](C(=O)N[C@@H](CCC(=O)O)C(=O)N[C@@H](CO)C(=O)NCC(=O)N[C@@H](CO)C(N)=O)NC(=O)[C@H](Cc2ccc(O)cc2)NC(=O)[C@H](Cc2ccc(O)cc2)NC(=O)[C@H](CC(=O)O)NC(=O)[C@H](CC(C)C)NC(=O)[C@H](CC(C)C)NC(=O)[C@H](CCC(=O)O)NC1=O", "assay": "viral entry, single-cycle pseudovirus", "system": "Env SC422661 clone B, subtype B", "IC50": "3.7 ± 0.6 µM"}
{"Structure (SMILES)": "CC(C)CN(C[C@@H](O)[C@H](Cc1ccccc1)NC(=O)O[C@H]1C2CO[C@H]3OC[C@@H]1C3C2)S(=O)(=O)c1ccc2nc(NC3CC3)sc2c1 (some centres unmarked)", "assay": "viral replication, p24", "system": "MT-4, NL4-3 wild type", "IC50": "0.00026 ± 3e-05 µM"}
{"Structure (SMILES)": "Cc1nc([C@H](NC(=O)c2ccc(-c3ccc(Cl)cc3)[nH]2)[C@H]2CCCCN2)sc1CO", "assay": "viral entry", "system": "TZM-bl, panel of 56 Env pseudoviruses", "IC50": "1.57 µM"}
{"Structure (SMILES)": "CC(=O)N[C@@H](CS)C(=O)N[C@@H](CO)C(=O)N[C@@H](CO)C(=O)N[C@@H](Cc1c[nH]cn1)C(=O)N[C@@H](Cc1ccc(O)cc1)C(=O)N1CCC[C@H]1C(=O)N[C@@H](Cc1ccccc1)C(=O)N[C@@H](CO)C(=O)N[C@@H](CCC(N)=O)C(=O)N[C@@H](Cc1ccc(O)cc1)C(=O)N[C@@H](CCC(N)=O)C(=O)N[C@@H](Cc1ccccc1)C(=O)N[C@@H](Cc1c[nH]c2ccccc12)C(=O)N[C@@H](CCCCN)C(N)=O", "assay": "viral entry", "system": "TZM-bl, YU2 (R5) pseudovirus", "conditions": "48 h", "IC50": "10.3 µM"}
{"Structure (SMILES)": "CC(C)C[C@@H](N)C(=O)NCC(=O)N[C@H](C)C(=O)N[C@H](CO)C(=O)N[C@H](Cc1c[nH]c2ccccc12)C(=O)N[C@H](Cc1c[nH]cn1)C(=O)N[C@H](CCCNC(=N)N)C(=O)N1CCC[C@@H]1C(=O)N[C@H](CC(=O)O)C(=O)N[C@H](CCCCN)C(=O)N[C@H](CSSC[C@@H](NC(=O)[C@@H](CCCCN)NC(=O)[C@@H](CC(=O)O)NC(=O)[C@H]1CCCN1C(=O)[C@@H](CCCNC(=N)N)NC(=O)[C@@H](Cc1c[nH]cn1)NC(=O)[C@@H](Cc1c[nH]c2ccccc12)NC(=O)[C@@H](CO)NC(=O)[C@@H](C)NC(=O)CNC(=O)[C@H](N)CC(C)C)C(=O)N[C@H](C)C(=O)N[C@H](CC(C)C)C(=O)NCC(=O)N[C@H](Cc1ccc(O)cc1)C(=O)N[C@H](CCC(N)=O)C(=O)N[C@H](CCCCN)C(=O)N[C@H](CCCNC(=N)N)C(=O)N1CCC[C@@H]1C(=O)N[C@H](CC(C)C)C(=O)N1CCC[C@@H]1C(N)=O)C(=O)N[C@H](C)C(=O)N[C@H](CC(C)C)C(=O)NCC(=O)N[C@H](Cc1ccc(O)cc1)C(=O)N[C@H](CCC(N)=O)C(=O)N[C@H](CCCCN)C(=O)N[C@H](CCCNC(=N)N)C(=O)N1CCC[C@@H]1C(=O)N[C@H](CC(C)C)C(=O)N1CCC[C@@H]1C(N)=O", "assay": "single-cycle infectivity, p24 immunoperoxidase focus", "system": "HeLa cells expressing CD4, HXBc2", "conditions": "48 h", "IC50": "10 ± 0.49 µM"}
{"Structure (SMILES)": "CC(=O)[O-].CN1CCN2CCN(CC1)CCN(Cc1ccccc1)CC2.F[P-](F)(F)(F)(F)F.[Ni+2]", "assay": "viral replication", "system": "MT-4, IIIB", "conditions": "5 d", "IC50": "0.55 µM"}
{"Structure (SMILES)": "CC(C)C[C@@H](N)C(=O)NCC(=O)N[C@H](C)C(=O)N[C@H](CO)C(=O)N[C@H](Cc1c[nH]c2ccccc12)C(=O)N[C@H](Cc1c[nH]cn1)C(=O)N[C@H](CCCNC(=N)N)C(=O)N1CCC[C@@H]1C(=O)N[C@H](CC(=O)O)C(=O)N[C@H](CCCCN)C(=O)N[C@H](CS)C(=O)N[C@H](CS)C(=O)N[C@H](CC(C)C)C(=O)NCC(=O)N[C@H](Cc1ccc(O)cc1)C(=O)N[C@H](CCC(N)=O)C(=O)N[C@H](CCCCN)C(=O)N[C@H](CCCNC(=N)N)C(=O)N1CCC[C@@H]1C(=O)N[C@H](CC(C)C)C(=O)N1CCC[C@@H]1C(N)=O", "assay": "viral replication, β-galactosidase chemiluminescence", "system": "HeLa-CD4-LTR-β-gal cells, IIIB", "conditions": "40 to 48 h", "IC50": "12.1 ± 3.26 µM"}
{"Structure (SMILES)": "COc1ccc2c(c1)OCCCC=CCCCCN(CC(O)C(Cc1ccccc1)NC(=O)OC1COC3OCCC13)S2(=O)=O (mixture of isomers)", "assay": "viral replication", "system": "PHA-stimulated PBMC, MDR/MM R5", "IC50": "0.055 ± 0.025 µM"}
{"Structure (SMILES)": "CC(=O)[O-].CN1CCCN2CCN(C)CCCN(CC1)CC2.F[P-](F)(F)(F)(F)F.[Co+2]", "assay": "viral replication", "system": "MT-4, IIIB", "conditions": "5 d", "IC50": "> 100 µM"}
{"Structure (SMILES)": "CC(=O)N[C@@H](CS)C(=O)N[C@@H](CO)C(=O)N[C@@H](CO)C(=O)N[C@@H](Cc1c[nH]cn1)C(=O)N[C@@H](Cc1ccccc1)C(=O)N1CCC[C@H]1C(=O)N[C@@H](Cc1ccccc1)C(=O)N[C@@H](CO)C(=O)N[C@@H](CCC(N)=O)C(=O)N[C@@H](Cc1ccc(O)cc1)C(=O)N[C@@H](CCC(N)=O)C(=O)N[C@@H](Cc1ccccc1)C(=O)N[C@@H](Cc1ccc(O)cc1)C(=O)N[C@@H](CCCCN)C(N)=O", "assay": "viral entry", "system": "TZM-bl, YU2 (R5) pseudovirus", "conditions": "48 h", "IC50": "14.1 µM"}
{"note": "Repeated from above:"}
{"Structure (SMILES)": "CC(C)C[C@@H](N)C(=O)NCC(=O)N[C@H](C)C(=O)N[C@H](CO)C(=O)N[C@H](Cc1c[nH]c2ccccc12)C(=O)N[C@H](Cc1c[nH]cn1)C(=O)N[C@H](CCCNC(=N)N)C(=O)N1CCC[C@@H]1C(=O)N[C@H](CC(=O)O)C(=O)N[C@H](CCCCN)C(=O)N[C@H](CSSC[C@@H](NC(=O)[C@@H](CCCCN)NC(=O)[C@@H](CC(=O)O)NC(=O)[C@H]1CCCN1C(=O)[C@@H](CCCNC(=N)N)NC(=O)[C@@H](Cc1c[nH]cn1)NC(=O)[C@@H](Cc1c[nH]c2ccccc12)NC(=O)[C@@H](CO)NC(=O)[C@@H](C)NC(=O)CNC(=O)[C@H](N)CC(C)C)C(=O)N[C@H](C)C(=O)N[C@H](CC(C)C)C(=O)NCC(=O)N[C@H](Cc1ccc(O)cc1)C(=O)N[C@H](CCC(N)=O)C(=O)N[C@H](CCCCN)C(=O)N[C@H](CCCNC(=N)N)C(=O)N1CCC[C@@H]1C(=O)N[C@H](CC(C)C)C(=O)N1CCC[C@@H]1C(N)=O)C(=O)N[C@H](C)C(=O)N[C@H](CC(C)C)C(=O)NCC(=O)N[C@H](Cc1ccc(O)cc1)C(=O)N[C@H](CCC(N)=O)C(=O)N[C@H](CCCCN)C(=O)N[C@H](CCCNC(=N)N)C(=O)N1CCC[C@@H]1C(=O)N[C@H](CC(C)C)C(=O)N1CCC[C@@H]1C(N)=O", "assay": "single-cycle infectivity, p24 immunoperoxidase focus", "system": "HeLa cells expressing CD4, HXBc2", "conditions": "48 h", "IC50": "10 ± 0.49 µM"}
